Experimental data from different studies.
Lines come from different studies, so protocols differ.

SMILES | assay | system | conditions | quantity | result
CNC(=O)c1ccc(-c2cnc3ncc(Cc4ccc5ncccc5c4)n3n2)cc1F |  | healthy human subjects | oral, 200 mg, Insomnia, all grades, all causality, with: itraconazole 200 mg/day | subjects with adverse event | 7.4%
C[C@H]1CN(C(=O)CC#N)[C@]12CCN(c1ncnc3[nH]ccc13)C2 |  | healthy human | oral, 1.5 mg, single dose | subjects with Headache | 12.5%
CC(C)(C(=O)N1CCOc2c(C#N)cncc2C1)C(F)F | refers to: Conjunctivitis | human | oral, 15 mg twice daily, 14 days, multiple ascending dose | subjects with adverse event | 0%
C[C@@H](Oc1ccc(S(C)(=O)=O)cc1C(=O)N1C[C@@H]2C[C@]2(c2cc(C(F)(F)F)on2)C1)C(F)(F)F |  | human | oral plus intravenous microtracer, dose not given | subjects with gastrointestinal disorders | 33.3%
Cc1cc(Nc2cc3ncccc3c(N[C@@H]3C[C@H]4CC[C@@H](C3)N4CCC#N)n2)n[nH]1 |  | healthy human | oral, 30 mg single dose, 2 weeks | subjects with epistaxis | 0%
Cc1cc(-c2nccc3c2ccn3CC(=O)Nc2ccc(-c3cnccn3)cn2)ccn1 |  | human | 20 mg once daily, multiple ascending dose | subjects with Headache adverse event | 33.3%
CC(C)n1c(Nc2cccnc2)nc2cnc(Nc3ccc(N4CCN(C)CC4)cc3)nc21 | refers to: aspartate aminotransferase increased | healthy human, male | oral, dose not given, CTCAE grade 1-3 | subjects with TEAE | 11.9%
CN1CCN(c2cccc3c2CCN(C(=O)/C=C/c2c(-n4cnnn4)ccc(Cl)c2F)[C@@H]3C(=O)Nc2ccc(C(=O)O)cc2)C(=O)C1 |  | healthy human subjects | intravenous infusion, 20 mg/h, 5 days | subjects with serious adverse event | 0%

A few entries again:
SMILES | assay | system | conditions | quantity | result
C[C@H]1CN(C(=O)CC#N)[C@]12CCN(c1ncnc3[nH]ccc13)C2 |  | healthy human | oral, 1.5 mg, single dose | subjects with Headache | 12.5%
